Published values of several laboratories.
A part holds a random share of what one study measured. Substitutions count along the parent as printed.

Set 1
Target: Interferon regulatory factor 7, full length, phosphomimetic (IRF7, Homo sapiens, UniProt Q92985, residues 1-503, S101K/S471D/S472D/S475D/S476D/S477D/S483D/S484D/S487D)
Method: protein-binding microarray
Molecule type: double-stranded DNA, one strand shown
Medium: in vitro
Tested at: 250 nM
Setting: 60-bp whole probe
With: salmon DNA 0.4 mg/ml
Reference: random background probes
Direction: higher = stronger binding
All sequences stand within: GCCTAGCAC … GTCTTGATTCGCTTGACGCTGCTG
Construct (chain): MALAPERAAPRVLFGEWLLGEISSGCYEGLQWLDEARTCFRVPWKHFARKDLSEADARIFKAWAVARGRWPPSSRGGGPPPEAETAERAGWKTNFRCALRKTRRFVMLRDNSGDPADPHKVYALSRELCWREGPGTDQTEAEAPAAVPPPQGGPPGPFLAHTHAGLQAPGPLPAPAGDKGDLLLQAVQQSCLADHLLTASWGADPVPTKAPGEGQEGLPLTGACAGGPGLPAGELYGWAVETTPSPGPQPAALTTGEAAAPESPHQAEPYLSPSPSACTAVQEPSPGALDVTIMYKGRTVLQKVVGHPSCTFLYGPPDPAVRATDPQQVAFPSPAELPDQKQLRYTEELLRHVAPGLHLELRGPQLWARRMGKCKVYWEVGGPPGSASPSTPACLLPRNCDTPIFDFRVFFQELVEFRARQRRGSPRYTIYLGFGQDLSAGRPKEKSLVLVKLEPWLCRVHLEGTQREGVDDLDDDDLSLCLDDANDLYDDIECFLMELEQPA
With `CTAGGACTGCTACTGCTTTAGTGCTAG` the log fluorescence was -0.457 z-score.
With `CACTCTCTACATGTGTTTAAGTGCTAG` the log fluorescence was 0.715 z-score.
The log fluorescence of `AAAATTTTGCTTCTAGAACAGTGCTAG` is reported as -0.0892 z-score.
For `GACGGTCTCGGTTTGGGGACGTGCTAG`, the log fluorescence was 7.11 z-score.
`TTAGAACTGATACTGGATTAGTGCTAG` gave a log fluorescence of 0.125 z-score.
`TTAGGATTGGGGACTGGGTTAGTGCTA` has a log fluorescence of -0.296 z-score.
`TTACATCTCAGTATCGATTAGTGCTAG` gave a log fluorescence of 1.17 z-score.
For `TTAGGTCTCGGTCTCGGGTAGTGCTAG`, the log fluorescence was 1.68 z-score.
`GACGATATCGGGCATCGAGACGTGCTA` has a log fluorescence of -0.469 z-score.
With `GACAGTTTCGACACTGGGGACGTGCTA` the log fluorescence was 3.43 z-score.

Set 2
Target: CCNF, cyclin fold, Cln2 fusion (human)
Method: yeast growth competition, sequencing
Medium: yeast
Setting: strong parent motif
Reference: not given
Direction: higher = stronger binding
Starting sequence: SAMHD1 docking peptide (human); ASKSRVQLFKDDP
`F9R` — result for “normalised enrichment score”: 0.102.
`Q7H`: “normalised enrichment score” 0.631.
For `V6Q`, “normalised enrichment score” read -0.254.
For `K10V`, “normalised enrichment score” read 0.529.
Under “normalised enrichment score”, `V6A` is recorded as -0.208.
`S4Q`: “normalised enrichment score” 1.29.
`S4A`: “normalised enrichment score” 4.77.

Set 3
Target: Sal-like protein 4, full length isoform B (SALL4, Homo sapiens, UniProt Q9UJQ4-2, residues 1-616)
Method: universal PBM
Molecule type: double-stranded DNA, one strand shown
Medium: in vitro
Tested at: not given
Setting: 8-mer, flanks averaged, mean of replicates
Direction: higher = stronger binding
Target sequence (chain): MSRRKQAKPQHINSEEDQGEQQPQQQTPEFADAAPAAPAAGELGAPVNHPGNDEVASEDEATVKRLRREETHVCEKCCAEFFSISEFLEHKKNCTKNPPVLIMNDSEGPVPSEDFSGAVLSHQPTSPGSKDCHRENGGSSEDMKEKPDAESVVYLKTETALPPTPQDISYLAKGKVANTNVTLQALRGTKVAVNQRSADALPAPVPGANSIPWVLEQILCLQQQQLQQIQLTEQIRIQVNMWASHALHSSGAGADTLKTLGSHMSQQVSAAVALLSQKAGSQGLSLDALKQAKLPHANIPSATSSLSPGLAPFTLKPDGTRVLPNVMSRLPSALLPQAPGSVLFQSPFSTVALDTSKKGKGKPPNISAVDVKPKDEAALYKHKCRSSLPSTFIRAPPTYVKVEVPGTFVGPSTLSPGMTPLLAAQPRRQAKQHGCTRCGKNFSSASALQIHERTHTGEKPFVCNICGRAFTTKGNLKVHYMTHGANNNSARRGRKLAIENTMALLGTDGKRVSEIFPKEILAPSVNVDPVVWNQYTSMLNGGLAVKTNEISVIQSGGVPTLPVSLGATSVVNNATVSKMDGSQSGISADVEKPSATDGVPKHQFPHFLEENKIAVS
The E-score of `ACACTTCC` is reported as -0.105.
`CCCGTCGG` gave an E-score of -0.332.
The E-score of `CCCAATAG` is reported as 0.0548.
`AAGGCCGT` has an E-score of -0.202.
`ACCCAAGC` gave an E-score of -0.16.
For `AGCGCGGC`, the E-score was -0.27.
The E-score of `GGTATTGA` is reported as 0.0895.

Mixed results
`PhoQ, residues 284 288 289 292 302 303 AQGLTV` has a fold induction of 7.12 (PhoP, residues 12 14 15 18 19 NQGLL (Escherichia coli, UniProt P23836); Sort-seq, measured: YFP reporter; E. coli; PhoQ-PhoP variant library, with: 10 µM Mg2+; reference: high Mg2+ state, higher = stronger signaling).

For quick reference, copied from above (set 2):
`F9R` — result for “normalised enrichment score”: 0.102.
`Q7H`: “normalised enrichment score” 0.631.
